# Published values of several laboratories.
# Every numbered part comes from another study and shows a few of its results, in no order. Substitutions count along the parent as printed.

# Sample 1 — method: protein-binding microarray; form: double-stranded DNA, one strand shown; matrix: in vitro; tested at: 0.8 µM; notes: whole 60-bp probe, no competitor; reading: higher = stronger binding; constant ends, left off below: … GTCTTGATTCGCTTGACGCTGCTG
# Target: Centromere-binding protein 1, full length, N-terminal tag (CBF1, Saccharomyces cerevisiae, UniProt P17106, residues 1-351)
# Chain of UniProt P17106 (whole entry, looked up): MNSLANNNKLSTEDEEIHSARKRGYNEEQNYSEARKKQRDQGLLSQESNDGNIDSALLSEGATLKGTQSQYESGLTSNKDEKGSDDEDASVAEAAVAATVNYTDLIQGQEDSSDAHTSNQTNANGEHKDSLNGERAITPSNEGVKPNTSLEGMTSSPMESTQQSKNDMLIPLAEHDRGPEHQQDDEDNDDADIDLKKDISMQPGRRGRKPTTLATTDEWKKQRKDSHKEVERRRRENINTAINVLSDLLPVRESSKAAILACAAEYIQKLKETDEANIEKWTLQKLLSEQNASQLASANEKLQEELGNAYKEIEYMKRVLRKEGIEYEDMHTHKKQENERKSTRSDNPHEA
Oligonucleotide,fluorescence intensity [a.u.]
TGTACGAAGCTATATCATGCTAGTATAGTAGTTAGG,508
GAAACTTCTTTTTTTCACATGAGAATGTAGTCCTAG,619
CTAGTTTTGACTAGTCTCATGAAATAAACATTATTC,512
GAAGCAATTTGAGATCAGGTGCCCAAGAACTCGTAG,3800
GAAAAAAATTTTCGCCTCGTGGCCCGAAACACGTAG,791
GAACAGGGACTTCTGCCCACCACGTAGAAACGCTAG,533
CTATCTGACGTACATCACGTGAACTGTTTTGCGTTC,12800
CTATCATTGAAAATTCACGTGATCGCAATATTCTTC,15600

# Sample 2 — method: DNA-protein interaction ELISA; form: double-stranded DNA, one strand shown; matrix: in vitro, bacterial lysate; tested at: not given; notes: whole dsDNA probe, crude lysate protein; baseline: highest signal in screen; reading: higher = stronger binding
# Target: Probable WRKY transcription factor 33, C-terminal DNA-binding domain (WRKY33, Arabidopsis thaliana, UniProt Q8S8P5, residues 346-449)
# Construct (chain): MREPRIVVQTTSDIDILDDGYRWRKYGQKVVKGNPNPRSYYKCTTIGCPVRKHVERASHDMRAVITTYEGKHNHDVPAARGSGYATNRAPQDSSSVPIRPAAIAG
Oligonucleotide,relative absorbance
AAAAAATAATATCGATACTCATGCCCAAAA,33.2 % of maximum
AAAAAAATCTCACTCCTGGTCCCCATAAAA,34.9 % of maximum
AAAAAACGGAAGATCGTGACTGCTAGAAAA,31.3 % of maximum
AAAAAACCACCCAGTCTGTTTCTACTAAAA,42.9 % of maximum
AAAAAAGGAAGTACTGACGATCTGGAAAAA,40.4 % of maximum
AAAAAAGTGTTTGTGCTTCTCTCTGTAAAA,39.4 % of maximum
AAAAAACGTGCGCGTGCATGTCATCGAAAA,28.2 % of maximum
AAAAAATTCTTTTTTCTTCAAGGTCTAAAA,30.3 % of maximum

# Single results of other studies
# P1: viral docking peptide; KGVKRKLFAEDSS; partner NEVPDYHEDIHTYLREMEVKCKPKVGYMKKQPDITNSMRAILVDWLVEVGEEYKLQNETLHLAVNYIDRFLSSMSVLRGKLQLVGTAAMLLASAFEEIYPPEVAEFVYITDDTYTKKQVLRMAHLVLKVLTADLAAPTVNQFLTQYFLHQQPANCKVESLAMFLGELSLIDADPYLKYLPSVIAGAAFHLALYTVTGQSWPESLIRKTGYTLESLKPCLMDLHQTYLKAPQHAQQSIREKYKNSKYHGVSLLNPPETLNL
Substance,target,test,test system,conditions,how to read,measurement,result
"PhoQ, residues 284 288 289 292 302 303 NLGVHL","PhoP, residues 12 14 15 18 19 TPLRH (Escherichia coli, UniProt P23836)","Sort-seq, measured: YFP reporter",E. coli,"PhoQ-PhoP variant library, added: 10 µM Mg2+","baseline: high Mg2+ state, higher = stronger signaling",fold induction,12.5
P1 G2K,"CCNA2, cyclin fold, Cln2 fusion (human)","yeast growth competition, sequencing",yeast,strong parent motif,"baseline: not given, higher = stronger binding",normalised enrichment score,6.63

# Repeated from above (sample 2):
Oligonucleotide,relative absorbance
AAAAAATAATATCGATACTCATGCCCAAAA,33.2 % of maximum
AAAAAAATCTCACTCCTGGTCCCCATAAAA,34.9 % of maximum
